Results pooled from the literature.
Parts stem from different laboratories: compare values within a part only. Changes are numbered by the printed parent chain.

Block 1
Target: CCNE2, cyclin fold, Cln2 fusion (human)
Technique: yeast growth competition, sequencing
Sample: yeast
Setting: strong parent motif
Reference: not given
Direction: higher = stronger binding
Starting sequence: PKN2 docking peptide (human); VSAVRKLDFSDTM; partner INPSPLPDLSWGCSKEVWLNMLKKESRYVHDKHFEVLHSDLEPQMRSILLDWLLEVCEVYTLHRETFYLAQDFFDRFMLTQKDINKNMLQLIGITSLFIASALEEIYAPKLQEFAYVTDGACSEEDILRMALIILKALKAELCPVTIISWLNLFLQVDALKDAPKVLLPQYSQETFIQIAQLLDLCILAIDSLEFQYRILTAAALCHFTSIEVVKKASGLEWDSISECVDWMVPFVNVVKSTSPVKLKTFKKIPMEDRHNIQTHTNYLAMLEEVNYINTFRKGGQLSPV
For `VSAVRKPDFSDTM [L7P]`, “normalised enrichment score” read -0.0851.
`VSAVRKMDFSDTM [L7M]` — result for “normalised enrichment score”: 0.397.
`VSAVRALDFSDTM [K6A]` — result for “normalised enrichment score”: 2.42.
`VSAVRKGDFSDTM [L7G]`: “normalised enrichment score” 0.187.
`VSAVRKLKFSDTM [D8K]`: “normalised enrichment score” 3.06.

Block 2
Target: Histone acetyltransferase KAT6A, winged helix 2, GST fusion (KAT6A, Homo sapiens, UniProt Q92794, residues 85-181)
Technique: protein binding microarray
Form: double-stranded DNA, one strand shown
Sample: in vitro
Tested at: not given
Setting: 8-mer, flanks averaged, mean of 2 arrays, mostly near background
Reference: not given
Direction: higher = stronger binding
Residues (chain): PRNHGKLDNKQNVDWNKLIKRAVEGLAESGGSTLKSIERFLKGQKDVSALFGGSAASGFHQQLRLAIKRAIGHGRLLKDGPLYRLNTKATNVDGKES
With `CGTTCTGA` the E-score was 0.00226.
`CCGTCGTA` has an E-score of -0.064.
`GCCGTTAA` gave an E-score of -0.00492.
With `CTTGTAAC` the E-score was 0.0868.
The E-score of `ACACCTAA` is reported as -0.161.
`AGCACCCA` has an E-score of 0.0358.
`ACTCCAGA` gave an E-score of 0.0746.

Block 3
Target: Myc proto-oncogene protein, bHLH-zipper, MAX partner unstated (MYC, Homo sapiens, UniProt P01106, residues 368-449)
Sequence of UniProt P01106 (368-449, looked up): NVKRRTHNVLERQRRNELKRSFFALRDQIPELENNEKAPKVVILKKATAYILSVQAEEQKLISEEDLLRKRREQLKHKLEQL
Technique: protein-binding microarray
Form: double-stranded DNA, one strand shown
Sample: in vitro
Tested at: not given
Setting: k-mer, scored over probes, only values ≥0.25
Direction: higher = stronger binding
`GCGTGGGA` has an E-score of 0.398.
The E-score of `AACATGCT` is reported as 0.346.
`AGGCATGC` gave an E-score of 0.375.
With `CCACACGA` the E-score was 0.335.
`GGTGACAC` has an E-score of 0.275.
The E-score of `CATGAGAC` is reported as 0.252.
With `GCGTGGCC` the E-score was 0.44.

Mixed results
The fold induction of `PhoQ, residues 284 288 289 292 302 303 SSTLLI` is reported as 2.88 (PhoP, residues 12 14 15 18 19 NFCKL (Escherichia coli, UniProt P23836); Sort-seq, measured: YFP reporter; E. coli; PhoQ-PhoP variant library, with: 10 µM Mg2+; reference: high Mg2+ state, higher = stronger signaling).

Repeated from above (block 3):
`GGTGACAC` has an E-score of 0.275.
`AGGCATGC` gave an E-score of 0.375.
With `GCGTGGCC` the E-score was 0.44.
